Measured values of several laboratories.
Each line is one published result; not all experiments were run side by side. “And” joins repeats or separate records; there may be more than shown. ± marks the error that the study gave.
Beta-lactamase CTX-M-27: Beta-lactamase CTX-M-27 (Escherichia coli, UniProt Q840M4)
BIRC3 BIR3: Baculoviral IAP repeat-containing protein 3, BIR3 (BIRC3, Homo sapiens, UniProt Q13489)
BIRC2 BIR3: Baculoviral IAP repeat-containing protein 2, BIR3 (BIRC2, Homo sapiens, UniProt Q13490)

SMILES	target or system	assay	system	conditions	quantity	result
O=C(Nc1cccc(-c2nn[nH]n2)c1)c1cc(-c2cc[nH]n2)cc(C(F)(F)F)c1	Beta-lactamase CTX-M-27	enzyme activity, inhibitor, absorbance	–	pH 7	Ki	1.69 µM
COc1cc(CNC(=O)C[C@H](C)CCC=C(C)C)ccc1OCc1cn(-c2ccc(Cl)c(Cl)c2)nn1	UACC-257 melanoma cells	SRB	–	10 µM, 48 h	growth percent	91%
CCC(=O)NCCCCNC(=O)NCc1ccc(CNC(=O)[C@@H](CCCNC(=N)N)NC(=O)C(c2ccccc2)c2ccccc2)cc1	NPY1R (Homo sapiens, UniProt P25929, D287N)	antagonist	–	–	Kb	5.54 µM and 10.7 µM
COCCOc1cc2ncnc(Nc3cccc(-c4cn(Cc5ccc(S(N)(=O)=O)cc5)nn4)c3)c2cc1OCCOC	CA6 (Homo sapiens, UniProt P23280)	enzyme activity, inhibitor, stopped-flow	–	–	Ki	0.0513 µM
CC(C)C[C@H](NC(=O)N(CCCNC(=N)N)NC(=O)[C@H](Cc1ccc(O)cc1)NC(=O)CCCCCCC(=O)N[C@@H](Cc1ccc(O)cc1)C(=O)NN(CCCNC(=N)N)C(=O)N[C@@H](CC(C)C)C(=O)N[C@@H](CCCNC(=N)N)C(=O)N[C@@H](Cc1ccc(O)cc1)C(N)=O)C(=O)N[C@@H](CCCNC(=N)N)C(=O)N[C@@H](Cc1ccc(O)cc1)C(N)=O	NPY1R (Homo sapiens, UniProt P25929)	ligand displacement, radioligand	–	–	Ki	0.053 µM
COc1cc(CNC(=O)C[C@H](C)CCC=C(C)C)ccc1OCc1cn(-c2ccccc2Cl)nn1	SW-620	SRB	–	10 µM, 48 h	growth percent	80.2%
CN[C@@H](C)C(=O)N[C@H]1CN(C(=O)Cc2ccccc2)CC[C@H]2CC[C@@H](C(=O)NCc3ccccc3)N2C1=O	BIRC3 BIR3	ligand displacement, FP	–	–	Ki	0.0103 µM
O=C(Nc1cccc(-c2nn[nH]n2)c1)c1cc(-c2ccncn2)cc(C(F)(F)F)c1	Beta-lactamase CTX-M-27	enzyme activity, inhibitor, absorbance	–	pH 7	Ki	3.72 µM
CN[C@@H](C)C(=O)N[C@H]1CCCCNC(=O)[C@H](Cc2ccccc2)NC(=O)[C@@H]2CCCN2C(=O)[C@@H](NC(=O)[C@H](C)NC)CCCCNC(=O)[C@H](Cc2ccccc2)NC(=O)[C@@H]2CCCN2C1=O	BIRC2 BIR3	cell-free assay, FP	–	–	Ki	0.084 µM
Cc1cc(N)nc(C[C@@H]2CNC[C@@H]2OCCCCCc2cc(F)cc(Cl)c2)c1	NOS3 (Bos taurus, UniProt P29473)	enzyme activity, inhibitor	–	pH 7.4	Ki	35.6 µM
CN[C@@H](C)C(=O)N[C@H]1CN(C(=O)Cc2ccccc2)CC[C@H]2CC[C@@H](C(=O)NCc3ccc([N+](=O)[O-])cc3)N2C1=O	BIRC2 BIR3	ligand displacement, FP	–	–	Ki	0.0101 µM
O=C(c1ccc(F)cc1)C1CCN(C2Cc3c(O)cccc3CC2O)CC1 (racemic)	sigma-2 receptor	radioligand binding	–	added: [3H]DTG	Ki	1.85 ± 0.408 µM
O[C@@H]1[C@H](O)[C@@H](CNC(=S)Nc2ccccc2)N2CCC[C@@H](O)[C@H]12	Alpha-mannosidase 2 (Homo sapiens, UniProt Q16706)	inhibitor, fluorogenic	–	added: 4-methylumbelliferyl α-mannoside	Ki	0.2 µM
COCCOc1cc2ncnc(Nc3cccc(-c4cn(-c5cccc(S(N)(=O)=O)c5)nn4)c3)c2cc1OCCOC	CA5A (Homo sapiens, UniProt P35218)	enzyme activity, inhibitor, stopped-flow	–	–	Ki	0.0116 µM
CC(=O)N[C@@H](C)C(=O)N[C@@H](CC(=O)O)C(=O)N[C@@H](CCCNC(=N)N)C(=O)N[C@H](C(=O)N[C@H](C=O)CC(=O)O)[C@@H](C)O	Caspase-7 (CASP7, Homo sapiens, UniProt P55210)	enzyme activity, inhibitor, fluorescence	–	pH 7	Ki	0.117 µM
[64Cu+2].c1cnc(CNCc2ccc(CN3CCCN4CCNCCCN(CC4)CC3)cc2)nc1	CXCR4	–	NOD/SCID mouse, U87 and U87-stb-CXCR4 xenografts, blood	iv, 90 min, ex vivo, added: AMD3465 25 mg/kg sc before tracer	tissue uptake	0.96 ± 0.19 %ID/g
C[C@@H]1O[C@@H](OCc2cc(O)c3c(c2)[C@H]([C@@H]2OC[C@@H](O)[C@H](O)[C@H]2O)c2cccc(O)c2C3=O)[C@H](O)[C@H](O)[C@H]1O	IDO1 (Homo sapiens, UniProt P14902)	uncompetitive inhibitor, Lineweaver-Burk plot	–	–	Ki	65.3 µM
CCCCCCCC/N=C1/SC[C@@H]2[C@@H](O)[C@H](O)[C@@H](O)[C@@H](CCC)N12	Alpha-galactosidase (Coffea arabica, UniProt Q42656)	enzyme activity, competitive inhibitor	–	green coffee bean enzyme, optimal pH, added: p-nitrophenyl glycopyranoside	Ki	> 2000 µM
CN[C@@H](C)C(=O)N[C@H]1CN(C(=O)Cc2ccccc2)CC[C@H]2CC[C@@H](C(=O)NCc3ccc(C(F)(F)F)cc3)N2C1=O	BIRC3 BIR3	ligand displacement, FP	–	–	Ki	0.0246 µM
CCC(=O)NCCNC(=O)/N=C(/N)NCCC[C@@H](NC(=O)C(c1ccccc1)c1ccccc1)C(=O)NCc1ccc(O)cc1	NPY1R (Homo sapiens, UniProt P25929, Q120N)	antagonist	human cells	–	Kb	0.00051 µM

For quick reference, copied from above:
SMILES	target or system	assay	system	conditions	quantity	result
CCC(=O)NCCNC(=O)/N=C(/N)NCCC[C@@H](NC(=O)C(c1ccccc1)c1ccccc1)C(=O)NCc1ccc(O)cc1	NPY1R (Homo sapiens, UniProt P25929, Q120N)	antagonist	human cells	–	Kb	0.00051 µM
COc1cc(CNC(=O)C[C@H](C)CCC=C(C)C)ccc1OCc1cn(-c2ccccc2Cl)nn1	SW-620	SRB	–	10 µM, 48 h	growth percent	80.2%
